Measurements gathered from unrelated publications.
Lines come from different studies, so protocols differ. Numbers after ± are the reported error.
Organism: Candida albicans

With `O=C(NCc1ccc2c(c1)OCO2)c1ncc(Br)cc1F` the MIC was 100 µM (microbial growth; ATCC10231; 72 h).
`c1cnc2c(c1)ccc1cccnc12` gave an IC50 of 3350 nM (biofilm formation, XTT; SC5314; 24 h, 37 °C).
With `CC[C@H](C)C[C@H](C)CCCCCCCCC(=O)N[C@H]1C[C@@H](O)[C@@H](NCCN)NC(=O)[C@@H]2[C@@H](O)CCN2C(=O)[C@H]([C@H](O)CCN)NC(=O)[C@H]([C@H](O)[C@@H](O)c2ccc(O)cc2)NC(=O)[C@@H]2C[C@@H](O)CN2C(=O)[C@H]([C@@H](C)O)NC1=O` the MIC was 0.2 µg/mL (ATCC 10231, RPMI 1640, 0.165 M MOPS; 24 h, 35 °C, 100% inhibition endpoint).
`CN(C)c1ccc(/C=c2/c3cc(O)ccc3n3c2cc(-c2ccccc2)[n+]3C)cc1` has an IC50 of 2240 nM (biofilm formation, XTT; SC5314; 24 h, 37 °C).
For `CC[C@H](C)[C@H](NC(=O)[C@H](CCCCN)NC(=O)[C@H](CCCCN)NC(=O)[C@H](CC(C)C)NC(=O)[C@@H](NC(=O)[C@H](CCCCN)NC(=O)[C@H](C)NC(=O)[C@H](C)NC(=O)[C@@H](NC(=O)CNC(=O)[C@H](C)NC(=O)[C@@H](NC(=O)[C@@H](NC(=O)[C@@H]1CCCN1C(=O)[C@H](Cc1ccccc1)NC(=O)[C@@H](N)Cc1ccccc1)[C@@H](C)CC)C(C)C)C(C)C)C(C)C)C(=O)N[C@@H](Cc1ccccc1)C(=O)N[C@H]1CSSC[C@@H](C(=O)O)NC(=O)[C@H](CCCCN)NC(=O)[C@H](CCCCN)NC(=O)[C@H](CO)NC(=O)[C@H]([C@@H](C)CC)NC(=O)[C@H]([C@@H](C)O)NC1=O`, the MIC was over 128 µM (10231; 18 h, 37 °C).
`CC[C@H](C)[C@H](NC(=O)CN)C(=O)NCC(=O)N[C@@H](C)C(=O)N[C@H](C(=O)N[C@@H](CC(C)C)C(=O)N[C@@H](CCCCN)C(=O)N[C@H](C(=O)N[C@@H](CC(C)C)C(=O)N[C@H](C(=O)N[C@H](C(=O)NCC(=O)N[C@@H](CC(C)C)C(=O)N1CCC[C@H]1C(=O)N[C@@H](C)C(=O)N[C@@H](CC(C)C)C(=O)N[C@H](C(=O)N[C@@H](CO)C(=O)N[C@@H](Cc1c[nH]c2ccccc12)C(=O)N[C@H](C(=O)N[C@@H](CCCCN)C(=O)N[C@@H](CCCNC(=N)N)C(=O)N[C@@H](CCCCN)C(=O)N[C@@H](CCCNC(=N)N)C(=O)N[C@@H](CCC(N)=O)C(=O)N[C@@H](CCC(N)=O)C(N)=O)[C@@H](C)CC)[C@@H](C)CC)[C@@H](C)O)[C@@H](C)O)C(C)C)C(C)C` gave an MIC of 7.8 ± 1.8 µg/mL (broth microdilution; ATCC 90028; 20 h, 37 °C).
`CC[C@H](C)[C@H](NC(=O)[C@H](CCCCN)NC(=O)[C@H](CCCCN)NC(=O)[C@H](CC(C)C)NC(=O)[C@@H](NC(=O)[C@H](CCCCN)NC(=O)[C@H](C)NC(=O)[C@H](C)NC(=O)[C@@H](NC(=O)CNC(=O)[C@H](C)NC(=O)[C@@H](NC(=O)[C@H](CCCCN)NC(=O)[C@@H]1CCCN1C(=O)[C@H](Cc1ccccc1)NC(=O)[C@@H](N)Cc1ccccc1)C(C)C)C(C)C)C(C)C)C(=O)N[C@@H](Cc1ccccc1)C(=O)N[C@H]1CSSC[C@@H](C(=O)O)NC(=O)[C@H](CCCCN)NC(=O)[C@H](CCCCN)NC(=O)[C@H](CO)NC(=O)[C@H]([C@@H](C)CC)NC(=O)[C@H]([C@@H](C)O)NC1=O` gave an MIC of over 128 µM (10231; 18 h, 37 °C).
`CC[C@H](C)[C@H](NC(=O)[C@H](CO)NC(=O)[C@@H](NC(=O)[C@H](C)NC(=O)[C@H](CCC(N)=O)NC(=O)CNC(=O)[C@@H](NC(=O)[C@@H](NC(=O)CNC(=O)[C@@H](NC(=O)[C@H](C)NC(=O)[C@@H]1CCCN1C(=O)CNC(=O)[C@H](C)NC(=O)[C@H](CCCCN)NC(=O)[C@@H](NC(=O)[C@@H](NC(=O)CNC(=O)[C@H](CC(=O)O)NC(=O)[C@H](CCCNC(=N)N)NC(=O)[C@@H](NC(=O)[C@H](CCCCN)NC(=O)[C@H](CCCNC(=N)N)NC(=O)CNC(=O)[C@@H](NC(=O)[C@H](CCCCN)NC(=O)[C@H](CCC(=O)O)NC(=O)[C@@H](NC(=O)[C@H](CCCCN)NC(=O)[C@H](CCCCN)NC(=O)[C@H](CC(C)C)NC(=O)[C@H](Cc1ccccc1)NC(=O)[C@H](CCCCN)NC(=O)[C@H](Cc1c[nH]c2ccccc12)NC(=O)[C@@H](N)CCCNC(=N)N)[C@@H](C)CC)C(C)C)C(C)C)C(C)C)[C@@H](C)CC)C(C)C)C(C)C)C(C)C)[C@@H](C)O)C(=O)N[C@@H](Cc1ccc(O)cc1)C(=O)N[C@@H](CCCCN)C(N)=O` has an MIC of 72.5 ± 35.2 µg/mL (broth microdilution; ATCC 90028; 20 h, 37 °C).
For `CCCCC[CH2][Hg][S]c1nc(N)nc2[nH]cnc12`, the IC50 was 12 nM (biofilm formation, XTT; SC5314; 24 h, 37 °C).
The MIC of `pneumocandin I` is reported as 0.1 µg/mL (broth microdilution, resazurin; ATCC 10231; 24 h, 35 °C).

A few entries again:
The MIC of `pneumocandin I` is reported as 0.1 µg/mL (broth microdilution, resazurin; ATCC 10231; 24 h, 35 °C).
